Experimental data pooled from the literature.
Each line is one published result; not all experiments were run side by side.
SRC: Proto-oncogene tyrosine-protein kinase Src (SRC, Homo sapiens, UniProt P12931)

Structure (SMILES) | target | assay | conditions | how to read | quantity | result
C[C@H]1Oc2cc(cnc2N)-c2c(nn(C)c2C#N)CN(C)C(=O)c2ccc(F)cc21 | SRC | enzyme activity, inhibitor | concentration not given, with: 10 µM ATP |  | inhibition | no inhibition
COc1cc2ncnc(Nc3ccc(Oc4ccccc4)cc3C)c2cc1OC | Proto-oncogene tyrosine-protein kinase Src, N1 isoform (SRC, Homo sapiens, UniProt P12931) | kinase activity, inhibitor | 1 µM |  | inhibition | 87%
c1cnc2ccc(Nc3nc(NC4CC4)c4nc[nH]c4n3)cc2c1 | SRC | kinase activity, inhibitor, SelectScreen kinase profiling | 1 µM | baseline: control | remaining activity | 98%
CNC(=O)c1cc2c(Oc3ccc(NC(=O)C4(C(=O)Nc5ccc(F)cc5)CC4)cc3)ccnc2cc1OC | SRC | kinase activity | 1 µM |  | inhibition | 97%
[2H]c1cc(C)c(NC(=O)c2cnc(Nc3cc(N4CCCCC4)nc(C)n3)s2)c(Cl)c1 | SRC |  | 0.0001 µM |  | inhibition | > 50%
COc1cc(-c2cncc3c2CN(C)Cc2cc(N4CCNCC4)ccc2-3)cc(OC)c1OC | SRC | kinase activity | 1 µM, human enzyme, with: ATP 10 µM | baseline: DMSO control | remaining activity | 92%
CC(C)(C)n1nc(-c2ccc(Cl)cc2)c2c(N)ncnc21 | SRC | autophosphorylation, cellular ELISA |  | baseline: cellular IC50 over biochemical Ki | potency loss | 44 fold
O=C(NC1CCC1)c1ccc2nc(-c3cccc(NS(=O)(=O)NCCN4CCCCC4)c3)cn2c1 | SRC | enzyme activity | 10 µM |  | remaining activity | 88%
C=CC(=O)N1CCC(COCC(=O)N2CCN(c3nc(-c4cnc(N)nc4C(F)F)nc(N4CCOC[C@@H]4C)n3)CC2)CC1 | SRC | KINOMEscan | 1 µM |  | remaining binding | 94%
O=C1NC(=O)/C(=C/c2ccc(-c3ccc(F)cc3O)o2)S1 | SRC | enzyme activity | 10 µM |  | remaining activity | 96%
[2H]c1cc(C)c(NC(=O)c2cnc(Nc3cc(N4CCC(O)CC4)nc(C)n3)s2)c(Cl)c1 | SRC |  | 0.001 µM |  | inhibition | > 50%
Cc1cnc(NC2CCOCC2)nc1-n1cnc(C(=O)NC(CN)c2cc(F)cc(Cl)c2)c1 (stereo not shown) | SRC | kinase activity, radiometric | 1 µM, kinase domain construct |  | remaining activity | 97%
Cc1cc(Nc2cc(N3CCN(C)CC3)nc(Sc3ccc(NC(=O)C4CC4)cc3)n2)[nH]n1 | SRC | kinase activity | 0.03 µM, residues 1-530 | baseline: control | remaining activity | 78%

A few entries again:
Structure (SMILES) | target | assay | conditions | how to read | quantity | result
C=CC(=O)N1CCC(COCC(=O)N2CCN(c3nc(-c4cnc(N)nc4C(F)F)nc(N4CCOC[C@@H]4C)n3)CC2)CC1 | SRC | KINOMEscan | 1 µM |  | remaining binding | 94%
O=C1NC(=O)/C(=C/c2ccc(-c3ccc(F)cc3O)o2)S1 | SRC | enzyme activity | 10 µM |  | remaining activity | 96%
